Experimental data collected from several papers.
Compare with care: the assays were run in different laboratories. Values joined by “and” are separate records of one study, mostly repeats; a detail may differ.
EPHA5: Ephrin type-A receptor 5 (EPHA5, Homo sapiens, UniProt P54756)
TDP1: Tyrosyl-DNA phosphodiesterase 1 (TDP1, Homo sapiens, UniProt Q9NUW8)
Sequence of UniProt Q9NUW8 (whole entry, looked up): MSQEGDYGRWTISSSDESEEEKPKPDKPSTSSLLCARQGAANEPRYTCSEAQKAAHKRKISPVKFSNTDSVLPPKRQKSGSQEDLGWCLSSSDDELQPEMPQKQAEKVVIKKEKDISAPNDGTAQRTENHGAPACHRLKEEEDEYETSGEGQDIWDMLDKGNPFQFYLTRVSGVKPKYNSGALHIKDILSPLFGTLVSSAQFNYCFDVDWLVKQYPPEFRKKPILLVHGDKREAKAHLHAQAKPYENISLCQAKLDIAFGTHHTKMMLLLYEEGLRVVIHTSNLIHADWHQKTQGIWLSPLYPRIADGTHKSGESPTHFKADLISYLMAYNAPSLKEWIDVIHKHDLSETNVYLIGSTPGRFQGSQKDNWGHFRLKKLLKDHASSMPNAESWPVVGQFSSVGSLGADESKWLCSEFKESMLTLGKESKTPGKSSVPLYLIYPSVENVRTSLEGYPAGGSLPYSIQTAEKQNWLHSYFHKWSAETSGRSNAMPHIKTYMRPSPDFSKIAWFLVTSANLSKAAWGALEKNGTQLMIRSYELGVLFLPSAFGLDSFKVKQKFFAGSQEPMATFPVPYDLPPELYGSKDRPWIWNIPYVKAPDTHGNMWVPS

CCn1cc(C(=O)O)c(=O)c2c(N)c(F)c(NC3CCCCC3)cc21
inhibition (EPHA5; kinase activity; 0.1 µM, with: ATP at Km): 7.6%

O=C=[N][Ru-4]123([n]4c5ccc(O)cc5c5c6c(c7cc(F)c[n+]1c7c54)C(=O)NC6=O)[S+]1CC[S+]2CC[S+]3CC1 (stereo not shown)
remaining activity (EPHA5; enzyme activity; 100 nM, human enzyme, with: 10 µM ATP; baseline: untreated): 124%

CNC(=O)C[C@H](Cc1ccc(C#N)cc1)NC(=O)c1cc(-c2ccc(CN[C@H](C)c3ccc(C)cc3)o2)ccc1Cl
activity vs control (EPHA5; enzyme activity, inhibitor; 1 µM): 100%

CCN1CCN(Cc2ccc(NC(=O)c3ccc(C)c(NC(=O)c4cncc(-c5cccs5)c4)c3)cc2C(F)(F)F)CC1
remaining binding (EPHA5; binding, competition with immobilised ligand; 1 µM): 4.8%

Cc1cnc2nc1Nc1cccc(c1)COC/C=C/COCc1cc(ccc1OCCN1CCOCC1)N2
remaining binding (EPHA5; binding; 0.1 µM): 100%

Nc1ncc2c(n1)-c1c([nH]c3ccc(C4=CCOCC4)cc13)CCC2
remaining binding (EPHA5; binding, competition with immobilised ligand; 1 µM): 87%

Cc1cccc(O[C@H]2CCC[C@@H](C(C)CNCc3ccncc3)C2)c1 (relative stereo)
inhibition (EPHA5; kinase activity, kinome panel screening; 1 µM): 3%

NC(=O)C[C@H]1CCc2sc3ncnc(O[C@H]4CC[C@H](N5CCOCC5)CC4)c3c21
inhibition (EPHA5; enzyme activity, inhibitor; 10 µM): 4%

C=CC(=O)N1Cc2nc(-c3cc(-c4cc(Cl)cnc4Cl)c(F)cc3F)n(-c3ccncn3)c2C1
inhibition (EPHA5; cell-free assay; 1 µM): 9.3%

COc1ccc(NC(=O)Nc2ccc3c(c2)C(=O)N(C(C)CO)CC(C)C(CN(C)Cc2ccc4c(c2)OCO4)O3)cc1 (stereo not shown)
remaining activity (EPHA5; kinase activity, KinaseProfiler; 0.03 µM, species human; baseline: control): 91%

C=CC(=O)N1CCCC(n2c(=O)c3ncccc3n(Cc3ccc(Oc4ccccc4)cc3)c2=O)C1 (stereo not shown)
remaining binding (EPHA5; cell-free assay, competition with immobilised ligand; 1 µM): 86%

CN(C)S(=O)(=O)c1ccc(-c2ccc(C=NOCc3ccc4nc(-c5ccccc5)c(Nc5ccc(C(=O)O)cc5)n4c3)o2)cc1
inhibition (TDP1; enzyme activity, inhibitor; 100 µM, unpurified compound): 47.7%

Cc1ccc(-c2c(/C=C(\C#N)C(=O)NC(C)C)n(CCCO)c3ncnc(N)c23)cc1
remaining binding (EPHA5; cell-free assay, competition with immobilised ligand; 1 µM): 99%

COc1cc(Nc2nccc(-c3cnn4nc(OC)ccc34)n2)cc(C(F)(F)F)c1
remaining binding (EPHA5; binding, competition with immobilised ligand; 1 µM): 75%

Cc1nc2c(F)cc(-c3nc(Nc4ccc(CNC(=O)CCCCCCC(=O)NO)cc4)ncc3F)cc2n1C(C)C
inhibition (EPHA5; enzyme activity, inhibitor; 1 µM): 55%

C=CC(=O)Nc1cccc(-c2cnc3[nH]cc(C(=O)NC(C)(C)C)c3n2)c1
inhibition (EPHA5; kinase activity; 0.1 µM): 0% and 1%

CN1CCN(Cc2ccc(-c3ccc(CO[C@H]4CCC[C@@H]4NC(=O)c4cc(-c5cnn(C)c5)cnc4N)cc3)cc2)CC1
inhibition (EPHA5; enzyme activity, inhibitor; 0.1 µM): 5%

Cn1c(-c2ccc(C=NOCc3ccc(-c4nc5cc(-c6ccccc6)ccn5c4Nc4ccc(C(=O)O)cc4)cc3)s2)nc2ccccc21
inhibition (TDP1; enzyme activity, inhibitor; 100 µM): 85.4%

COc1c(Cl)cccc1Nc1c(-c2ccncc2C#C[C@@]2(C)CCCN2C(=O)/C=C/CN(C)C)[nH]c2c1C(=O)NCC2
remaining binding (EPHA5; cell-free assay, competition with immobilised ligand; 3 µM): 98%

Excerpt of the above:
COc1cc(Nc2nccc(-c3cnn4nc(OC)ccc34)n2)cc(C(F)(F)F)c1
remaining binding (EPHA5; binding, competition with immobilised ligand; 1 µM): 75%
